Experimental data gathered from unrelated publications.
Protocols differ between the studies behind these lines. Values joined by “and” are separate records of one study, mostly repeats; a detail may differ. ± gives the spread as reported. ≈ marks a conversion by molar mass, not a printed value.
Sequence of UniProt P21917 (whole entry, looked up): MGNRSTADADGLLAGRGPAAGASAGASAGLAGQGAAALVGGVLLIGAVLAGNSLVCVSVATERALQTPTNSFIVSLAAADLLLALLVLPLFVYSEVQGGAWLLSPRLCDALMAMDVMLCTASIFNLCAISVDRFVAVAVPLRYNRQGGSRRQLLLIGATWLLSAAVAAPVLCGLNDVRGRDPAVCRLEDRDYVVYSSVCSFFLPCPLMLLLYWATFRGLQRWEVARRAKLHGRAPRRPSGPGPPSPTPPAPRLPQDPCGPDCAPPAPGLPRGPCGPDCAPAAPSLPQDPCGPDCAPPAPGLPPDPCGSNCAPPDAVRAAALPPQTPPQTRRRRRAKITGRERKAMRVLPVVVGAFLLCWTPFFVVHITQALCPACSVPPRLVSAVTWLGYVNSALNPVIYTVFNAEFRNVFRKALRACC
Sequence of UniProt Q96AM1 (whole entry, looked up): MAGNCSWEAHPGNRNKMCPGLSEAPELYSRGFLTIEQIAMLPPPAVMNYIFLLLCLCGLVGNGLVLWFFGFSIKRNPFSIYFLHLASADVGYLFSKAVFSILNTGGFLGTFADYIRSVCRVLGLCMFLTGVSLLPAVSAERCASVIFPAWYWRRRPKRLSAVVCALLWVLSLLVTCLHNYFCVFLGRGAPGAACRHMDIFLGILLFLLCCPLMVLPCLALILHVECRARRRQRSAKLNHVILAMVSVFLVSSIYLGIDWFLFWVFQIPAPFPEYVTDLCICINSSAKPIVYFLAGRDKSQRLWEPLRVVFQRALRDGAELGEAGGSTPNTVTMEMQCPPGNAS
Sequence of UniProt P49840 (whole entry, looked up): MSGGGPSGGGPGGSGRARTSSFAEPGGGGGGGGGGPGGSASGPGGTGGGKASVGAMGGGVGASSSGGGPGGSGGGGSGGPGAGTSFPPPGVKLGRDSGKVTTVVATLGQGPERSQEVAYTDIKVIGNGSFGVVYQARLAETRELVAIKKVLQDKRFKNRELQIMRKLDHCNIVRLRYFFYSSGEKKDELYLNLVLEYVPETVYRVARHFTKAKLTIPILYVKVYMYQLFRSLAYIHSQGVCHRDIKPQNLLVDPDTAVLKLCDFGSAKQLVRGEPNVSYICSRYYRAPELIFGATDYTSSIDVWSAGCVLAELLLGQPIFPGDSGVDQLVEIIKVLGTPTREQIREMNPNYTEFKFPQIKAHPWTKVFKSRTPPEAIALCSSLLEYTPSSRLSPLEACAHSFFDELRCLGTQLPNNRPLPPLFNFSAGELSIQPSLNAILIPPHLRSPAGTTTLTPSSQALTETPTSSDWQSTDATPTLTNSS
Sequence of UniProt Q8IVT5 (whole entry, looked up): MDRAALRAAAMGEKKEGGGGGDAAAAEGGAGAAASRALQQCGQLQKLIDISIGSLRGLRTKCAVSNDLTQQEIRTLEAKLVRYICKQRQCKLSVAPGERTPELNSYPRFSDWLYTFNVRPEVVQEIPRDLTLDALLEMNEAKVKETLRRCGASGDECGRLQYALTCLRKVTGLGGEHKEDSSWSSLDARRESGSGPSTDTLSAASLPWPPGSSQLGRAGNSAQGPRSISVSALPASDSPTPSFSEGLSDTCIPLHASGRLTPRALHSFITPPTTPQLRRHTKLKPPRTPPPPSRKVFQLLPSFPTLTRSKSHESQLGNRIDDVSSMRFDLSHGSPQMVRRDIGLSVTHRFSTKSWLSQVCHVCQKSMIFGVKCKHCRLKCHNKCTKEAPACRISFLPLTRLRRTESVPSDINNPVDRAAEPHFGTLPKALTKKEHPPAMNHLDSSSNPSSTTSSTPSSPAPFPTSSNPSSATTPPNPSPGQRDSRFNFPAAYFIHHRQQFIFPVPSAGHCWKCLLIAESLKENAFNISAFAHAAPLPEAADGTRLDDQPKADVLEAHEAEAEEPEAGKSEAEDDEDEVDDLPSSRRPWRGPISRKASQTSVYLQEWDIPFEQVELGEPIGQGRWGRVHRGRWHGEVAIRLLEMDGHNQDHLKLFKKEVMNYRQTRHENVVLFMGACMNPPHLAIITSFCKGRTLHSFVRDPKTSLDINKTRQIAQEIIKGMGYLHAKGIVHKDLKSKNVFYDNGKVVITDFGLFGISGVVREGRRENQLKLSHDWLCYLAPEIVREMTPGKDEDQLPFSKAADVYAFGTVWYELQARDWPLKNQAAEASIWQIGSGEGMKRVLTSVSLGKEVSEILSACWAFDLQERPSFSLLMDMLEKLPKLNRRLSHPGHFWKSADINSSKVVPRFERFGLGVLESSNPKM

[131I-].[Na+]  indeterminate response (ATA response criteria; human, papillary thyroid cancer, nodal metastases; 3700 MBq): 18.6%
C[C@]12CC[C@H](O)C[C@H]1CC[C@@H]1[C@@H]2CC[C@]2(C)[C@@H](c3ccc(=O)oc3)CC[C@]12O  tumour volume (female nude mouse LCC2 xenograft; 0.5 mg/kg, day 15, tamoxifen-resistant): 82.3 mm3 and 96.3 mm3 and 89.9 mm3 and 81.1 mm3 and 123 mm3 and 68.6 mm3 and 101 mm3
C[C@H]1O[C@@H](O[C@H]2CC[C@@]3(C)[C@@H](CC[C@]4(C)[C@@H]3C=C[C@]35OC[C@@]6(CCC(C)(C)C[C@H]63)[C@@H](O)C[C@]54C)[C@]2(C)CO)[C@H](O)[C@@H](O[C@@H]2O[C@H](CO)[C@@H](O)[C@H](O)[C@H]2O)[C@H]1O  steatosis area (H&E staining; AAV8-null control mice, no ethanol, liver; dose not given, high dose): 5.08% and 6.32% and 5.52% and 5.93% and 3.91% and 6.26% and 4.8% and 4.71%
CC[C@@H](C)[C@@H](NC(=O)[C@@H](Cc1ccc(O)cc1)NC(=O)[C@H]1CCCN1C(=O)[C@@H](CCCNC(=N)N)NC(=O)[C@H](N)Cc1c[nH]cn1)C(=O)N[C@H](C)C(=O)N[C@H](Cc1c[nH]cn1)C(=O)N[C@H](CCCNC(=N)N)C(=O)N[C@H](CCCCNC(=O)c1cccc(S(=O)(=O)F)c1)C(=O)N[C@H](Cc1ccc(O)cc1)C(=O)N[C@H](CO)C(=O)N[C@H](Cc1ccccc1)C(N)=O  IFN-γ+ CD4+ T cells (ex vivo flow cytometry; MC-38 tumour-bearing mice, tumour; 3.9 mg/kg; reference: CD4+ T cells): 5.95% and 6.24% and 6.58% and 3.8%
COc1cc(Nc2ncc(F)c(Nc3ccc4c(n3)NC(=O)C(C)(C)O4)n2)cc(OC)c1OC  IC50 (DRD4 (Homo sapiens, UniProt P21917)): > 10 µM
Cc1nc(Nc2ccc(CC(=O)O)cc2)nc(Nc2ccc(F)c(C(F)(F)F)c2)c1C  protein level (measured: UCP1; mice, chronic ethanol plus binge, brown adipose tissue; intraperitoneal, 0.3 mg/kg daily, ethanol diet 4 weeks, dosed last two; reference: vehicle): increased
Oc1ccc2c3c1O[C@H]1[C@@H](O)CC[C@@]4(O)[C@@H](C2)N(CC2CCC2)CC[C@]314  log2 fold change (Mas-related G-protein coupled receptor member F (MRGPRF, Homo sapiens, UniProt Q96AM1); β-arrestin recruitment, TANGO luminescence, measured: MRGPRF; concentration not given; reference: basal luminescence): 0.283
[Cl][Ru-]([Cl])([Cl])[Cl].[Na+].c1ccc2[nH]ncc2c1.c1ccc2[nH]ncc2c1  duration of partial response (CT, RECIST 1.1; human; 320 mg/m2): 9 weeks
CO[C@H]1C[C@@H]2CC[C@@H](C)[C@@](O)(O2)C(=O)C(=O)N2CCCC[C@H]2C(=O)O[C@H]([C@H](C)C[C@@H]2CC[C@@H](OC(=O)NCCOCCOCCOCCOCCOCCOCCOCCOCCC(=O)N3CCc4cc(Cn5nc(-c6ccc7oc(N)nc7c6)c6c(N)ncnc65)ccc4C3)[C@H](OC)C2)C[C@@H](O)[C@H](C)/C=C(\C)[C@@H](O)[C@@H](OC)C(=O)[C@H](C)C[C@H](C)/C=C/C=C/C=C/1C  any SAE incidence (phase 1 dose escalation; advanced solid tumour patients; intravenous, 6 mg weekly, any grade): 50%
CN1CCN(S(=O)(=O)c2cc([N+](=O)[O-])ccc2N(CCOS(C)(=O)=O)CCOS(C)(=O)=O)CC1  event-free survival (NSG mice, sample CH PDX; intraperitoneal, 25 mg/kg weekly x3): > 367 days
CC[C@H](C)[C@@H]1NC(=O)[C@@H]2CCCN2C(=O)[C@H](CC(C)C)NC(=O)[C@H](CC(C)C)NC(=O)CNC(=O)[C@@H](NC(=O)[C@@H](NC(=O)[C@H](CC(=O)O)NC(=O)CNC(=O)[C@@H](NC(=O)[C@H](C)NC(=O)CNC(=O)[C@H](CCCCN)NC(=O)[C@H](CC(C)C)NC(=O)[C@H](CC(C)C)NC(=O)[C@H](CCCCN)NC(=O)CNC(=O)[C@@H](NC(=O)[C@@H](N)CC(C)C)C(C)C)C(C)C)C(C)C)CSSC[C@@H](C(=O)O)NC1=O  log2 fold change (RNA-seq, measured: Tbc1d10c mRNA; mouse traumatic brain injury, frontal cortex and hippocampus; dose not given; reference: TBI plus compound vs TBI): -2.64
C[C@]1(CO)Cc2ncn(-c3ccc(C#N)c(Cl)c3)c2C(=O)O1  urinary potassium excretion 0-24 h (Japanese subjects; 80 mg single dose): 31.7 mmol
COc1cc2c(Oc3ccc4[nH]c(C)cc4c3F)ccnc2cc1OCC1(N)CC1  grade 1 or 2 Tinnitus (paediatric recurrent refractory sarcoma; 12 mg): 18.2%
O=S(=O)([O-])C(F)(F)C(F)(F)C(F)(F)C(F)(F)C(F)(F)C(F)(F)C(F)(F)C(F)(F)F.[K+]  protein expression (Western blot, measured: Cyp4a10; pair-fed mice, liver; dose not given): increased
CC(C)C1CCC(N2CCC(N3C(=O)C(=O)c4ccccc43)CC2)CC1 (stereo not drawn)  heart rate change (conscious Sprague-Dawley rats; iv, 30 nmol/kg): no effect
C=CCNc1c(O)cc2c(O)c1C[C@@H](C)C[C@H](OC)[C@H](O)[C@@H](C)/C=C(\C)[C@H](OC(N)=O)[C@@H](OC)/C=C\C=C(/C)C(=O)N2  disease control rate (RECIST v1.0; human GIST; concentration not given, PR or SD at least 6 weeks): 73%
CNCC(=O)c1ccccc1  Emax (ICSS total stimulations; rat): 164 % baseline
CS(=O)(=O)c1ccc(-c2nnc(/C=C/c3nnc(-c4ccc(C#N)cc4)o3)n2-c2ccccc2Cl)nc1  normalized enrichment score (RNA-seq GSEA, measured: HALLMARK_FATTY_ACID_METABOLISM; organoids, small intestinal, Apc Q1405X, mouse; dose not given, 3 days, knockout organoids; reference: DMSO, direction not given): 2.01
O=S(=O)(F)Oc1cc(C(F)(F)F)cc(C(F)(F)F)c1  pseudo-first-order rate constant (HPLC-MS; pH 10.2, with: 50 mM N-α-acetyl-lysine): 1.4 h⁻¹
COc1ccc2c(c1)CC[C@@H]1[C@@H]2CC[C@]2(C)[C@@H](NCCCCCCN3C(=O)C=CC3=O)CC[C@@H]12  inhibition (calcium response, decay phase; N2a, mouse; 1 µM, with: ATP 300 µM): 50%
C[C@@H](O)[C@@H](CO)NC(=O)[C@@H](CCCNC(=N)N)NC(=O)[C@@H]1CCCN1C(=O)[C@@H]1CSSC[C@H](NC(=O)[C@H](Cc2ccccc2)NC(=O)CN2CCN(CC(=O)O)CCN(CC(=O)O)CCN(CC(=O)O)CC2)C(=O)N[C@@H](Cc2ccc(O)cc2)C(=O)N[C@@H](Cc2ccccc2)C(=O)N[C@@H](CCC(N)=O)C(=O)N[C@@H](CC(N)=O)C(=O)N1 [gallium-68 labelled]  tissue uptake (healthy Wistar rat, stomach; intravenous, 8 MBq, 30 min, individual animals): 0.36 %ID/g
COc1ccc(N2C(=O)N(c3c(C)cccc3Cl)Cc3cnc(Nc4ccc(C5CCN(C)CC5)cc4OC)nc32)nc1  inhibition (GSK3A (Homo sapiens, UniProt P49840); kinase activity, inhibitor; 0.5 µM, kinase GSK-3-ALPHA): 8%
CC[C@H](C)[C@H](NC(=O)[C@H](C)NC(=O)[C@H](CCCCN)NC(=O)[C@H](CC(C)C)NC(=O)[C@H](C)NC(=O)[C@@H](NC(=O)[C@H](Cc1c[nH]cn1)NC(=O)[C@H](CC(C)C)NC(=O)[C@@H](NC(=O)[C@@H](NC(=O)[C@H](CCCCN)NC(=O)[C@H](C)NC(=O)[C@H](C)NC(=O)[C@H](CO)NC(=O)[C@H](CCCCN)NC(=O)[C@H](Cc1ccccc1)NC(=O)[C@@H](NC(=O)[C@H](CCCCN)NC(=O)[C@H](CC(C)C)NC(=O)[C@H](Cc1ccccc1)NC(=O)[C@H](CO)NC(=O)[C@H](CCCCN)NC(=O)[C@H](Cc1c[nH]c2ccccc12)NC(=O)[C@H](CCCCN)NC(C)=O)[C@@H](C)O)[C@@H](C)O)C(C)C)[C@@H](C)O)C(=O)N[C@@H](CO)C(=O)N[C@@H](CO)C(N)=O  MIC geometric mean (Pseudomonas aeruginosa; IPM-R; 81 strains): 7.16 µg/mL (≈ 2.44 µM)
NNc1ccccc1  normalised absorbance (hydrazine ligation kinetics, absorbance; concentration not given, 10 s, with: 2-formylphenylboronic acid): 0.77
FC(F)(F)c1ccc2c(c1)[C@@H]1CNC[C@H]2C1  ethanol preference (intermittent two-bottle choice; Wistar rat, 20% ethanol drinking; subcutaneous, 5 mg/kg, 24 h; reference: ethanol over total fluid intake): 42 ± 4%
CCCCC1(CCCC)CN(c2ccccc2)c2cc(SC)c(OCC(=O)N[C@@H](C(=O)NCC(=O)O)c3ccccc3)cc2S(=O)(=O)C1  serum LDL-C (measured: LDL cholesterol; human, serum; 20 mg once daily, day 14): 75.3 mg/dL
COc1cc(CCC[P+](c2ccccc2)(c2ccccc2)c2ccccc2)c(OC)c2c1OCO2.[I-]  TGI (MOLT-4; SRB): -4.72 log M
C[C@H]1CN(c2n[nH]c3nc(N[C@H]4CC[C@H](NS(=O)(=O)CCC(F)(F)F)CC4)ncc23)CCO1  relative abundance (KSR1 (Homo sapiens, UniProt Q8IVT5); inhibitor, Kinobeads competition profiling; 0.032 µM; reference: vehicle): 1.09
CN1CC[C@@H](c2c(O)cc(O)c3c(=O)cc(-c4ccc(C(F)(F)F)cc4Cl)oc23)[C@@H]1CO  patients with adverse event (measured: Pyrexia; B-cell malignancies; oral, 150 mg, intermittent dosing): 0%
CCCCC1CNC2CCc3ccc(OC)cc3C12.Cl (racemic)  trials to criterion (memory retention, foot-shock T-maze avoidance; SAMP8 mice; intraperitoneal, 0.1 mg/kg daily; reference: vehicle): decreased
Clc1cc2c(cc1Cl)Oc1cc(Cl)c(Cl)cc1O2  mRNA level (RNA-Seq, measured: Lta4h; female Sprague-Dawley rat, liver; dose not given; reference: vehicle): 1.2 fold
Cc1cn(-c2cc(NC(=O)c3ccc(C)c(Nc4nccc(-c5cccnc5)n4)c3)cc(C(F)(F)F)c2)cn1  MMSE score (Alzheimer's disease patients; 150 mg, 6 months, group mean; direction not given): 17.2 ± 4.6
CC[C@H](C)[C@H](NC(=O)[C@H](Cc1ccccc1)NC(=O)[C@H](CCC(=O)O)NC(=O)[C@H](CCCNC(=N)N)NC(=O)[C@H](C)NC(=O)[C@H](C)NC(=O)[C@H](CCC(N)=O)NC(=O)[C@H](CCC(=O)O)NC(=O)[C@H](CCC(=O)O)NC(=O)[C@H](CC(C)C)NC(=O)[C@H](Cc1ccc(O)cc1)NC(=O)[C@H](CO)NC(=O)[C@H](CO)NC(=O)[C@@H](NC(=O)[C@H](CC(=O)O)NC(=O)[C@H](CO)NC(=O)[C@@H](NC(=O)[C@H](Cc1ccccc1)NC(=O)[C@@H](NC(=O)CNC(=O)[C@H](CCC(=O)O)NC(=O)[C@H](C)NC(=O)CCc1c[nH]cn1)[C@@H](C)O)[C@@H](C)O)C(C)C)C(=O)N[C@@H](C)C(=O)N[C@@H](Cc1c[nH]c2ccccc12)C(=O)N[C@@H](CC(C)C)C(=O)N[C@H](C(=O)N[C@@H](CCCNC(=N)N)C(=O)NCC(=O)N[C@@H](CCCNC(=N)N)C(=O)N[C@@H](CCCCNC(=O)COCCOCCNC(=O)COCCOCCNC(=O)CC[C@H](NC(=O)CCCCCCCCCCCCCCCCC(=O)O)C(=O)O)C(=O)NCC(=O)NCC(=O)N[C@@H](CO)C(=O)N[C@@H](CCCCNc1c(NCCCCCN(O)C(=O)CCC(=O)NCCCCCN(O)C(=O)CCC(=O)NCCCCCN(O)C(C)=O)c(=O)c1=O)C(=O)O)C(C)C [zirconium-89 labelled]  tissue uptake (rat, duodenum; iv, 3 nmol/kg, 24 h, ex vivo): 0.2 %ID/g

For quick reference, copied from above:
CN1CCN(S(=O)(=O)c2cc([N+](=O)[O-])ccc2N(CCOS(C)(=O)=O)CCOS(C)(=O)=O)CC1  event-free survival (NSG mice, sample CH PDX; intraperitoneal, 25 mg/kg weekly x3): > 367 days
CC[C@H](C)[C@@H]1NC(=O)[C@@H]2CCCN2C(=O)[C@H](CC(C)C)NC(=O)[C@H](CC(C)C)NC(=O)CNC(=O)[C@@H](NC(=O)[C@@H](NC(=O)[C@H](CC(=O)O)NC(=O)CNC(=O)[C@@H](NC(=O)[C@H](C)NC(=O)CNC(=O)[C@H](CCCCN)NC(=O)[C@H](CC(C)C)NC(=O)[C@H](CC(C)C)NC(=O)[C@H](CCCCN)NC(=O)CNC(=O)[C@@H](NC(=O)[C@@H](N)CC(C)C)C(C)C)C(C)C)C(C)C)CSSC[C@@H](C(=O)O)NC1=O  log2 fold change (RNA-seq, measured: Tbc1d10c mRNA; mouse traumatic brain injury, frontal cortex and hippocampus; dose not given; reference: TBI plus compound vs TBI): -2.64
C[C@]1(CO)Cc2ncn(-c3ccc(C#N)c(Cl)c3)c2C(=O)O1  urinary potassium excretion 0-24 h (Japanese subjects; 80 mg single dose): 31.7 mmol
COc1cc2c(Oc3ccc4[nH]c(C)cc4c3F)ccnc2cc1OCC1(N)CC1  grade 1 or 2 Tinnitus (paediatric recurrent refractory sarcoma; 12 mg): 18.2%
O=S(=O)([O-])C(F)(F)C(F)(F)C(F)(F)C(F)(F)C(F)(F)C(F)(F)C(F)(F)C(F)(F)F.[K+]  protein expression (Western blot, measured: Cyp4a10; pair-fed mice, liver; dose not given): increased
